Assay results gathered from unrelated publications.
Each numbered part is a random draw from the data of one study; scales do not carry over between parts. Several values in a cell are separate wells, animals, samples, runs or records.
Chain of UniProt P35916 (whole entry, looked up): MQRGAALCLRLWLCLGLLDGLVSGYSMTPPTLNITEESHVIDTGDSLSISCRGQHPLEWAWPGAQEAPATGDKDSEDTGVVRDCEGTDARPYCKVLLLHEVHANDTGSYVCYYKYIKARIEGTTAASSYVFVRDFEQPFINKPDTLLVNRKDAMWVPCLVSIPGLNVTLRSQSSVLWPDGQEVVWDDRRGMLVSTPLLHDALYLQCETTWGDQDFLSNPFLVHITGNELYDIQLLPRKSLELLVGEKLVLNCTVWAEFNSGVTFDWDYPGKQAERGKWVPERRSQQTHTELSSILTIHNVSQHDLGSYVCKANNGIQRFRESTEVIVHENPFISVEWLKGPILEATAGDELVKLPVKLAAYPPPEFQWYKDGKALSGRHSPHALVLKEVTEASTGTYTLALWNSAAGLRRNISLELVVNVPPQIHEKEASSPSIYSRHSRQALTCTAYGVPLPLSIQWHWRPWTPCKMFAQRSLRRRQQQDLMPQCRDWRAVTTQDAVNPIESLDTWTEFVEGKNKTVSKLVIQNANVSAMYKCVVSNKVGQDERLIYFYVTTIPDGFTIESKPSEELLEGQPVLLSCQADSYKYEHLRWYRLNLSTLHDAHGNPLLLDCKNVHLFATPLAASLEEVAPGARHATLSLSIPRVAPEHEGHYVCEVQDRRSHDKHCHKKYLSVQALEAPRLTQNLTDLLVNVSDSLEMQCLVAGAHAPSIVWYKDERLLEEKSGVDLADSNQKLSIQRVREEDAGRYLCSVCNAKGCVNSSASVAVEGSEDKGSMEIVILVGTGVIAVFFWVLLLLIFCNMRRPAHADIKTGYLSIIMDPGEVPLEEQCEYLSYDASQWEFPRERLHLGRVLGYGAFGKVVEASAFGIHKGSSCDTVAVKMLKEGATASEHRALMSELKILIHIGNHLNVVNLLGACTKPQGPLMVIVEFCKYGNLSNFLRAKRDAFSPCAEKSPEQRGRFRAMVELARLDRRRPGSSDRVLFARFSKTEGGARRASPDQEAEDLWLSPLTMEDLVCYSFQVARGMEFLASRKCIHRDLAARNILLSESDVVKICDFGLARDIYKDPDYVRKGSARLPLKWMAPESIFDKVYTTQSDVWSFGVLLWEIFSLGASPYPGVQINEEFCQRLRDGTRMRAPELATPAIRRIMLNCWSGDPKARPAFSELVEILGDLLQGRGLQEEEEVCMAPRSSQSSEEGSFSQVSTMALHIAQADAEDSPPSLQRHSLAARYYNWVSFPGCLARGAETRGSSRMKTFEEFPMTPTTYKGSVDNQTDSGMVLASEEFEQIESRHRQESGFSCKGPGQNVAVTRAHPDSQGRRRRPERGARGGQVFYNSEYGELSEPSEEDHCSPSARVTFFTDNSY
Chain of UniProt Q9UBE8 (whole entry, looked up): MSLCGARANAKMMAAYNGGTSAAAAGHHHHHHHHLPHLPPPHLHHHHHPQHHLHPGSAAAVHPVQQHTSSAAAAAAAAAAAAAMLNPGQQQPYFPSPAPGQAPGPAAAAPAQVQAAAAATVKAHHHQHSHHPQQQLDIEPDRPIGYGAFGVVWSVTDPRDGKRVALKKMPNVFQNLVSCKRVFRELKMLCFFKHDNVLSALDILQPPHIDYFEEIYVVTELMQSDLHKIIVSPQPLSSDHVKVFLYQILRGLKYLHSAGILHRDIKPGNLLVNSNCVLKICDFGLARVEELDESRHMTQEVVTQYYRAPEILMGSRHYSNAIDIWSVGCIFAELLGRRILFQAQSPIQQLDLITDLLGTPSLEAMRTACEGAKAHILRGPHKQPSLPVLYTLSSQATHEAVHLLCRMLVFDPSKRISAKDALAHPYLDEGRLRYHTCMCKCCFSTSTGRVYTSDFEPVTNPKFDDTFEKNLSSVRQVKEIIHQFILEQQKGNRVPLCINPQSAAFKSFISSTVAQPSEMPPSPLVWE
Chain of UniProt Q96RG2 (whole entry, looked up): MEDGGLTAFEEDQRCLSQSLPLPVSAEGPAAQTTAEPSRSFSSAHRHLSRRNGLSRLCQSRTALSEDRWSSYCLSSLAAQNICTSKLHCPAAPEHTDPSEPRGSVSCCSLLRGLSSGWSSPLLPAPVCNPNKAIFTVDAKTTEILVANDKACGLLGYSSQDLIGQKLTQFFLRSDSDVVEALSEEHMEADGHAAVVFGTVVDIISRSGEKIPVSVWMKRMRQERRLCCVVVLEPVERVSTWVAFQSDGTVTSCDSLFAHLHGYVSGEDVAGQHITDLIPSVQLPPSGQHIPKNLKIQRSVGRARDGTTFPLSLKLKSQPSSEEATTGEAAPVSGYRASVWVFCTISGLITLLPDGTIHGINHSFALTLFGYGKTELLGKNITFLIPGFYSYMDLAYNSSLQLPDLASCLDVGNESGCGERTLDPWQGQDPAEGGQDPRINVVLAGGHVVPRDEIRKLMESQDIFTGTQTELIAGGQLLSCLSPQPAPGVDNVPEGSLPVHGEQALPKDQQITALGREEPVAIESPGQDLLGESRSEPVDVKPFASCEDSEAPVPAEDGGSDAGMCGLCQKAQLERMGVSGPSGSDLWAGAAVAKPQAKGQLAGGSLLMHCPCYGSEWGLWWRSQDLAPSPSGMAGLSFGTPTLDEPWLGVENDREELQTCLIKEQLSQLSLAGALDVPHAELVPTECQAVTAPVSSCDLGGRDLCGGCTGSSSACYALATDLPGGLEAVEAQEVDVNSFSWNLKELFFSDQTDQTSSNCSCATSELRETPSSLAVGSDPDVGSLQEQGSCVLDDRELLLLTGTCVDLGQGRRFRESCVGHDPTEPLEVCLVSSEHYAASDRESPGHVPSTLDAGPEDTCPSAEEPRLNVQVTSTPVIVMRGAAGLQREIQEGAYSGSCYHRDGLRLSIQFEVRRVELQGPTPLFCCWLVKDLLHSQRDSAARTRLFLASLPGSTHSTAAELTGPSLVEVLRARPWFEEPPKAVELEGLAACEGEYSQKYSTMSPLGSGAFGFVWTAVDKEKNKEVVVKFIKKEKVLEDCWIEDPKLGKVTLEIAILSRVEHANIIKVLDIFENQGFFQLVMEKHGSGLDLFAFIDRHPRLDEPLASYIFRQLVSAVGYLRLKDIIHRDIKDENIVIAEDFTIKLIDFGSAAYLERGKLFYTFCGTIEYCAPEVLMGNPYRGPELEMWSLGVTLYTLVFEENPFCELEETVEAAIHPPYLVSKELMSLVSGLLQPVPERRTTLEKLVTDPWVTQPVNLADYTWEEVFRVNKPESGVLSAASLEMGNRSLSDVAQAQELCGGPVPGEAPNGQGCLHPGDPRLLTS
Chain of UniProt P31749 (whole entry, looked up): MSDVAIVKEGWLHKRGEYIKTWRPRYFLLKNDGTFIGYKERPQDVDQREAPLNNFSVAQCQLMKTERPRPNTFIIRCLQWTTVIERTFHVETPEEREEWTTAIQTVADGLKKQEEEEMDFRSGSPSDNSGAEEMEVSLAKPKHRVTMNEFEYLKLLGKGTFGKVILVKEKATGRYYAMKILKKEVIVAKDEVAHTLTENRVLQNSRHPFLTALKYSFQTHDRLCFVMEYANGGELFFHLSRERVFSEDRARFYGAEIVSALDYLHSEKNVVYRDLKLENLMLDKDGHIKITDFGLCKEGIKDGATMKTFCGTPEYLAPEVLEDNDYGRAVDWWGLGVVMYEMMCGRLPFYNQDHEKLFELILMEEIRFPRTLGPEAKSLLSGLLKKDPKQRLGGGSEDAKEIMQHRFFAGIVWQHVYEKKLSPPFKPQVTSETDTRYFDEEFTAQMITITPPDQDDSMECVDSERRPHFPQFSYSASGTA
Chain of UniProt O00506 (whole entry, looked up): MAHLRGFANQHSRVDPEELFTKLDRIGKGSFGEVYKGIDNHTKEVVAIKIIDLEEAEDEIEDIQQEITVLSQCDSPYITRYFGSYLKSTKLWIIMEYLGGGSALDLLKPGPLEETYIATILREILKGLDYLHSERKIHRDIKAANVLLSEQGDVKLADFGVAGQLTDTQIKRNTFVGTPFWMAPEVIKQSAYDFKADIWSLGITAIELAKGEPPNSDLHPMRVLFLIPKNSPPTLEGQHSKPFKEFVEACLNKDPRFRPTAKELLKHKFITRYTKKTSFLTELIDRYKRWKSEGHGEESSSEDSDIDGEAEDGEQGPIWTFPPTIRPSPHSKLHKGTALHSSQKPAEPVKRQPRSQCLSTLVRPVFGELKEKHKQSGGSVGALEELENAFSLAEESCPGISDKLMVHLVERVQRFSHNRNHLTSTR

Study 1 — observed: enzyme activity; mode: inhibitor; tested at: 0.5 µM; baseline: control; endpoint: remaining activity
SMILES: O=C1NC(=O)c2c1c1c3ccccc3n3c1c1c2c2ccccc2n1[C@H]1CC[C@@H]3O1
PKN1 (Homo sapiens, UniProt Q16512): 2.68%
LIM domain kinase 1 (LIMK1, Homo sapiens, UniProt P53667): 49.3%
FLT4 (Homo sapiens, UniProt P35916): 4.97%
ALK (Homo sapiens, UniProt Q9UM73): 36.9%
Insulin receptor (INSR, Homo sapiens, UniProt P06213): 17.2%
PASK (Homo sapiens, UniProt Q96RG2): 43.3%
MARK3 (Homo sapiens, UniProt P27448): 8.53%
AKT1 (Homo sapiens, UniProt P31749): 63.9%
STK25 (Homo sapiens, UniProt O00506): 34.4%
CDC42BPA (Homo sapiens, UniProt Q5VT25): 84%
MATK (Homo sapiens, UniProt P42679): 91.7%
NLK (Homo sapiens, UniProt Q9UBE8): 74.1%

Study 2 — observed: enzyme activity; mode: inhibitor; tested at: 10 µM; endpoint: inhibition
Target: Calcium/calmodulin-dependent protein kinase type II subunit alpha (CAMK2A, Homo sapiens, UniProt Q9UQM7)
Chain of UniProt Q9UQM7 (whole entry, looked up): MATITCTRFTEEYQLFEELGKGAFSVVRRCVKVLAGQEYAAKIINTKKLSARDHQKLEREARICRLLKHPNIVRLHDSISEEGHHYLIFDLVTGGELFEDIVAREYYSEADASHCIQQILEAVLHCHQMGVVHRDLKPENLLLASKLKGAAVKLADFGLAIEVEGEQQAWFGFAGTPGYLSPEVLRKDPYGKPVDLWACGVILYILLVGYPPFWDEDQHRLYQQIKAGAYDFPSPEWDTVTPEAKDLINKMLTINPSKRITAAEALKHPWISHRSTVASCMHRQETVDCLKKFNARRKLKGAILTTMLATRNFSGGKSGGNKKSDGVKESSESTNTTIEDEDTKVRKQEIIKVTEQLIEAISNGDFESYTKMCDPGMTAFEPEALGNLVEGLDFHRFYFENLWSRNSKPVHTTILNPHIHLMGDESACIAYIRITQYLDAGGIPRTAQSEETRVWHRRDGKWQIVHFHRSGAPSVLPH
O=c1cc(O)c2ccccc2o1: -12%
CN1C2CC(OC(=O)C(CO)c3ccccc3)CC1C(O)C2 (stereo not drawn): 9%
CC(C)(O)CC[C@@H](O)[C@](C)(O)[C@H]1CC[C@@]2(O)C3=CC(=O)[C@@H]4C[C@@H](O)[C@@H](O)C[C@]4(C)[C@H]3[C@H](O)C[C@]12C: -14%
O=C(O)COc1ccc(Cl)cc1Cl: -8%
CCC1CCC(=O)O1 (stereo not drawn): 4%
C[C@]12CC[C@H]3[C@@H](CC[C@]4(O)C[C@@H](O)CC[C@]34C=O)[C@@]1(O)CC[C@@H]2C1=CC(=O)OC1: -50%
CC(Cc1ccc(O)cc1)NCC(O)c1cc(O)cc(O)c1 (stereo not drawn): -4%
CC(=O)O[C@@]12CO[C@@H]1C[C@@H](O)[C@@]1(C)C(=O)[C@H](O)C3=C(C)[C@@H](OC(=O)[C@H](O)[C@@H](NC(=O)c4ccccc4)c4ccccc4)C[C@@](O)([C@@H](OC(=O)c4ccccc4)[C@H]21)C3(C)C: -40%
C=C1CC[C@H]2[C@@H](/C=C(/C)C(=O)[C@@]3(O)C[C@H](C)[C@H](O)[C@@H]3[C@H]1O)C2(C)C: 11%

Study 3 — observed: RNA clamping; method: fluorescence polarization; tested at: concentration not given; setting: mean of two replicates; with: FAM-labelled poly r(AG)8 RNA; endpoint: fluorescence polarization change
Target: Eukaryotic initiation factor 4A-I (EIF4A1, Homo sapiens, UniProt P60842)
Chain of UniProt P60842 (whole entry, looked up): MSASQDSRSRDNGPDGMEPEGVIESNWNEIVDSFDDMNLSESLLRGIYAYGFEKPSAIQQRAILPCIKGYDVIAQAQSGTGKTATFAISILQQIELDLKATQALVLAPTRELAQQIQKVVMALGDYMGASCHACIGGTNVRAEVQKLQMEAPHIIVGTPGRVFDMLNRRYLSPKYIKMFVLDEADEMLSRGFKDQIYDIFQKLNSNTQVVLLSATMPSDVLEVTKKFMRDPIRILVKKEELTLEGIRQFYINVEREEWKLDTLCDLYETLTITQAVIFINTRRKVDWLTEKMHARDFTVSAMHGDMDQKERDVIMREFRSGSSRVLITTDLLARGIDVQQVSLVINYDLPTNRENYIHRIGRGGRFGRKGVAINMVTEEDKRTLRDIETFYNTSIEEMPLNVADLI
COc1ccc([C@@]23Oc4cc(OC)cc(OC)c4[C@]2(O)c2nc(-c4ccc(F)cc4)[nH]c(=O)c2[C@H]3c2ccccc2)cc1: 13.3 mP
COc1ccc([C@@]23Oc4cc(OC)cc(OC)c4[C@@]24NC(C2CC2)=N[C@@]4(O)[C@H](C(=O)N(C)OC)[C@H]3c2ccccc2)cc1: 79.1 mP
COC(=O)[C@@H]1[C@@H](c2ccccc2)[C@]2(c3ccc(OC)cc3)Oc3cc(OC)cc(OC)c3[C@@]23N=C(C2CC2)N[C@@]13O: 85.7 mP and 61.1 mP
COc1ccc([C@@]23Oc4cc(OC)cc(OC)c4[C@]2(O)c2nc(-c4cccc(C)c4)[nH]c(=O)c2[C@H]3c2ccccc2)cc1: 17.8 mP
COCC1=N[C@@]2(O)[C@H](C(=O)OC)[C@@H](c3ccccc3)[C@]3(c4ccc(OC)cc4)Oc4cc(OC)cc(OC)c4[C@]23N1: 72.7 mP and 55.5 mP
COCCN[C@]12c3c(OC)cc(OC)cc3O[C@@]1(c1ccc(OC)cc1)[C@H](c1ccccc1)[C@@H](C(=O)N(C)C)[C@H]2O: 7.3 mP
C#CCOc1nc(-c2ccccc2)nc2c1[C@@H](c1ccccc1)[C@]1(c3ccc(OC)cc3)Oc3cc(OC)cc(OC)c3[C@]21OCC#C: 13.8 mP
COC(=O)[C@@H]1[C@@H](c2ccccc2)C2(c3ccc(OC)cc3)C(=O)C1(O)c1ccccc1N2C (stereo partly drawn): -0.5 mP
CCOc1ccccc1-c1nc2c(c(=O)[nH]1)[C@@H](c1ccccc1)[C@]1(c3ccc(OC)cc3)Oc3cc(OC)cc(OC)c3[C@]21O: 62 mP
COc1ccc([C@@]23Oc4cc(OC)cc(OC)c4[C@]2(O)c2nc(Cc4ccccc4)[nH]c(=O)c2[C@H]3c2ccccc2)cc1: 32.5 mP

Study 4 — organism: Sarcocystis neurona; observed: parasite growth; tested at: 10 µM; time: 96 h; setting: first screen; baseline: untreated; endpoint: log2 fold change
c1cncc([C@@H]2CCCN2)c1: -0.5
Oc1c(Cl)cc(Cl)c(Cl)c1Cc1c(O)c(Cl)cc(Cl)c1Cl: -3.29
CCC1(c2ccc(N)cc2)CCC(=O)NC1=O (stereo not drawn): 0.32
CN1C(=O)CN=C(c2ccccc2)c2cc(Cl)ccc21: -3.28
NC1=NC(=O)C(c2ccccc2)O1 (stereo not drawn): 0.017
O=C(c1ccc(F)cc1)C1CCN(CCn2c(=S)[nH]c3ccccc3c2=O)CC1: -5.06
O=C(O)C(Cl)Cl: 0.26
CC(C)[C@]12O[C@H]1[C@@H]1O[C@]13[C@]1(O[C@H]1C[C@H]1C4=C(CC[C@@]13C)C(=O)OC4)[C@@H]2O: -3.21
